Measurements pooled from the literature.
A part holds a random share of what one study measured.

Block 1 — cell line: sample D normal colon organoid; technique: CellTiter-Glo; concentration: 1 µM; setting: mean of replicates; reference: DMSO
SMILES	viability
CC(=O)c1c(NS(C)(=O)=O)c2cc(-c3ccc(Cl)cc3)c(-c3ccc(Cl)cc3Cl)nc2n(C)c1=O	93.5%
Cc1ccc2nc(CNCCCOc3ccccc3)cc(O)c2c1	127%
CC1=C(C#N)C(c2ccc3[nH]nc(C)c3c2)C(C#N)=C(C)N1	108%
Cc1cc(NC(=O)c2cccc(S(F)(F)(F)(F)F)c2)cc(-n2ccn3nc(-c4cccnc4)cc23)c1	98.5%
CNCc1ccccc1-c1csc([C@@H](C)Nc2nc(C)nc3cc(OC)c(OC)cc23)c1	65.9%

Block 2 — effect on: enzyme activity; mode: inhibitor; concentration: 0.5 µM; reference: control
Target: Tyrosine-protein kinase Blk (BLK, Homo sapiens, UniProt P51451)
UniProt P51451, sequence (whole entry, looked up): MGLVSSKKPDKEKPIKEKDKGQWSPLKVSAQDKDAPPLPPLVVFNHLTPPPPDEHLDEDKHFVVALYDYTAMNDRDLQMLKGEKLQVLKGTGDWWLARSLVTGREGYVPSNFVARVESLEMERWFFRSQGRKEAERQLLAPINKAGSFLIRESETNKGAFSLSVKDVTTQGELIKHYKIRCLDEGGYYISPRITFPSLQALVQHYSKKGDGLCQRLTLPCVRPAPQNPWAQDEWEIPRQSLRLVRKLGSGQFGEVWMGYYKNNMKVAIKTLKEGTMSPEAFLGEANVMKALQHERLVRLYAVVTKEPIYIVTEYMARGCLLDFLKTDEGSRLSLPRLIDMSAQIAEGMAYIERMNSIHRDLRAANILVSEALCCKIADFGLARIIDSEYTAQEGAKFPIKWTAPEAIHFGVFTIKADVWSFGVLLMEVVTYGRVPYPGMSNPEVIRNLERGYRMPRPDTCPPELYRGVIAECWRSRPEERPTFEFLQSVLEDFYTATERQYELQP
SMILES	remaining activity
Cc1cccc(-c2[nH]c(C(C)(C)C)nc2-c2ccc3c(c2)OCO3)n1	98.5%
OCC(O)CCON=C1C(c2c(O)[nH]c3ccccc23)=Nc2ccccc21 (stereo not shown)	39.1%
C#Cc1cccc(Nc2ncnc3cc(OCCOC)c(OCCOC)cc23)c1	79.4%
Cc1ccc(NC(=O)c2ccc(CN3CCN(C)CC3)cc2)cc1Nc1nc(-c2cccnc2)cs1	57.5%
CC(C)[C@H](CO)Nc1nc(Nc2cc(N)cc(Cl)c2)c2ncn(C(C)C)c2n1	79.6%
COc1ccc(OC)c2c(=S)c3ccccc3[nH]c12	96.5%
COc1cc2nccc(Oc3ccc(NC(=S)NC(=O)c4ccccc4C)cc3)c2cc1OC	8.59%
O=C1NC(=O)C(c2cn(CCCO)c3ncccc23)=C1c1cnccn1	87.1%
O=C(Nc1cccc(Nc2cc(Nc3cccc(C(F)(F)F)c3)ncn2)c1)C1CC1	101%
Nc1[nH]nc2nc3ccccc3nc12	96.6%
COc1cc2ncnc(Nc3ccc(Oc4ccccc4)cc3)c2cc1OC	9.95%
Cn1sc(=O)n(Cc2ccccc2)c1=O	101%

Block 3 — technique: phase 2a trial; species: idiopathic pulmonary fibrosis patients
Compound: CC(C)n1cnc(-c2ccc(F)cc2)c1-c1ncc(C(=O)Nc2ccc(N3CCN(C)CC3)cc2)[nH]1
conditions	patients with coronary arteriosclerosis [%]
60 mg once daily, adverse event grade 3	0
30 mg once daily, adverse event grade 5	0
60 mg once daily, adverse event grade 4	0
30 mg once daily, adverse event grade 1	0

Block 4 — species: mouse; sample: microsomes or S9; concentration: 2 µM; time: 0.5 h
Structure (SMILES)	remaining compound [%]
CCCC(NNC(=O)c1cnccn1)C(=O)OC (stereo not shown)	1.03
CC1Cc2ccccc2N1C(=O)c1ccc(=O)n(CCC(=O)N2CCN(c3ccccn3)CC2)n1 (stereo not shown)	0.366
CC1CCc2c(sc(NC(=O)C3CCCN(S(C)(=O)=O)C3)c2C(N)=O)C1 (stereo not shown)	86.5
CCN(C(=O)c1ccccc1)[C@@H]1CCO[C@H](c2ccc(C(=O)Nc3ncccc3C)cc2)C1	81.4

For quick reference, copied from above (block 2):
SMILES	remaining activity
COc1cc2nccc(Oc3ccc(NC(=S)NC(=O)c4ccccc4C)cc3)c2cc1OC	8.59%
O=C1NC(=O)C(c2cn(CCCO)c3ncccc23)=C1c1cnccn1	87.1%
O=C(Nc1cccc(Nc2cc(Nc3cccc(C(F)(F)F)c3)ncn2)c1)C1CC1	101%
